Published values of several laboratories.
Protocols differ between the studies behind these lines. Several values in a cell are separate wells, animals, samples, runs or records. Numbers after ± are the reported error.
GLP1R: Glucagon-like peptide 1 receptor (GLP1R, Homo sapiens, UniProt P43220)
RPA1 N-terminal domain: Replication protein A 70 kDa DNA-binding subunit, N-terminal domain (RPA1, Homo sapiens, UniProt P27694)
GRM4: Metabotropic glutamate receptor 4 (GRM4, Homo sapiens, UniProt Q14833)
E3 ubiquitin-protein ligase NEDD4: E3 ubiquitin-protein ligase NEDD4 (Homo sapiens, UniProt P46934)
Grm2: Metabotropic glutamate receptor 2 (Grm2, Rattus norvegicus, UniProt P31421)
Lysophospholipase-like protein 1: Lysophospholipase-like protein 1 (Mus musculus, UniProt Q3UFF7)

Amino acid sequences for entries named in this document (tags omitted). A change or cut given only in a name is not applied to a line headed by its entry. Residues count along the entry.
UniProt Q14833, 33-912 limits assumed: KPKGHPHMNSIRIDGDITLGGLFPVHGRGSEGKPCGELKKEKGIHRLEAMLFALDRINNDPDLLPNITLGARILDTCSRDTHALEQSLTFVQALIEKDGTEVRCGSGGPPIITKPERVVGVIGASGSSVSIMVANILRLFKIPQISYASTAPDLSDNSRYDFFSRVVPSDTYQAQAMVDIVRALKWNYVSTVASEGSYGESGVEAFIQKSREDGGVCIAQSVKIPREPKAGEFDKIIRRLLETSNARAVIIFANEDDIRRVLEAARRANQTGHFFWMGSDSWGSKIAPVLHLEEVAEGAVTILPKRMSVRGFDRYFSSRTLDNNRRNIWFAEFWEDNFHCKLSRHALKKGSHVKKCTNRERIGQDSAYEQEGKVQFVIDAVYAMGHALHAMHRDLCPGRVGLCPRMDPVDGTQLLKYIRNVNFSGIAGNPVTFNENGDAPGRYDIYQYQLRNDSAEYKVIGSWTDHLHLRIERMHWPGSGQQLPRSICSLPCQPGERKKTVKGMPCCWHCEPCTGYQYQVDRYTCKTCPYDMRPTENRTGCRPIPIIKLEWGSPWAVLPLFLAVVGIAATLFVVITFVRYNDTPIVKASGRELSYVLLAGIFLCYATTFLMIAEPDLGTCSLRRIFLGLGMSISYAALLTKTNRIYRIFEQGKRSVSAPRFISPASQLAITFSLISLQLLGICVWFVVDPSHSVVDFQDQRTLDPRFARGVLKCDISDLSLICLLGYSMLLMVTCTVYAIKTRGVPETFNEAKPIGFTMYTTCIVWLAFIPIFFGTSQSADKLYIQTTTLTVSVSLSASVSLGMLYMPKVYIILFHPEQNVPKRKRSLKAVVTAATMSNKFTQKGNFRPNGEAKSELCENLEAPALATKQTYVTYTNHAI
UniProt P46934, whole entry, looked up: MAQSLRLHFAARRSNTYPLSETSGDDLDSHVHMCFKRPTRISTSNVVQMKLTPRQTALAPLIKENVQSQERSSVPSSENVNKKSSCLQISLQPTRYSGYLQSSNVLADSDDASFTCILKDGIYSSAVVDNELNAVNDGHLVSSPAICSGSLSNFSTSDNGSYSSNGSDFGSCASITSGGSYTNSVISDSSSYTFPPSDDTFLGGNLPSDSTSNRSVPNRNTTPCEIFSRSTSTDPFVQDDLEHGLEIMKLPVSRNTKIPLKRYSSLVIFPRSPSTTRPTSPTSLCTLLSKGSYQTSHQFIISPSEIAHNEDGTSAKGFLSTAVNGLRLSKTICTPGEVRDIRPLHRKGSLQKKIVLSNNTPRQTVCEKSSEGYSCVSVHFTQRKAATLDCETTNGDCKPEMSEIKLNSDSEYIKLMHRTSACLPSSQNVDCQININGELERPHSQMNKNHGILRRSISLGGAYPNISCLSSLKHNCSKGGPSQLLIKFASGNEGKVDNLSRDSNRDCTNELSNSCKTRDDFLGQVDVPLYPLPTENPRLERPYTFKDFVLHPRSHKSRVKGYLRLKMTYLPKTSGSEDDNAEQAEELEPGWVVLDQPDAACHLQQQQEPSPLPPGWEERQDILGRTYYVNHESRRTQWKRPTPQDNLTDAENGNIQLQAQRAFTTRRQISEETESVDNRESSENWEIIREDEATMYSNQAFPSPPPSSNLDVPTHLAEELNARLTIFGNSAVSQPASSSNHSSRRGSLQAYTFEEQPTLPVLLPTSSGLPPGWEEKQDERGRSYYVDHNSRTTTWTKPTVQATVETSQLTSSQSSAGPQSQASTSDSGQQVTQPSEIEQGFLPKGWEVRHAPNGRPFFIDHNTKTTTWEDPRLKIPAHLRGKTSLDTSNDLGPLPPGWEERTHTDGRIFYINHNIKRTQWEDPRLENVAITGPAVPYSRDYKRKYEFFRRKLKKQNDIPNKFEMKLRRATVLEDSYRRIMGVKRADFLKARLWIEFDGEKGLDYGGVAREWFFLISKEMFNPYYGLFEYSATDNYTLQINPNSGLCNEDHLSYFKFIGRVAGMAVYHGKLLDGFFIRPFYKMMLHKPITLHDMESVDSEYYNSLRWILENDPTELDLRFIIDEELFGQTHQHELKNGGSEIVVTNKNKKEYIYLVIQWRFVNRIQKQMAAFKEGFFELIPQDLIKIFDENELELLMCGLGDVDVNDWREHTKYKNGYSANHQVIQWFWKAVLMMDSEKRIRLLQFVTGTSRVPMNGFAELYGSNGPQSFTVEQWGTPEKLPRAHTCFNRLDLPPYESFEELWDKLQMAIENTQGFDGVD
UniProt Q3UFF7, whole entry: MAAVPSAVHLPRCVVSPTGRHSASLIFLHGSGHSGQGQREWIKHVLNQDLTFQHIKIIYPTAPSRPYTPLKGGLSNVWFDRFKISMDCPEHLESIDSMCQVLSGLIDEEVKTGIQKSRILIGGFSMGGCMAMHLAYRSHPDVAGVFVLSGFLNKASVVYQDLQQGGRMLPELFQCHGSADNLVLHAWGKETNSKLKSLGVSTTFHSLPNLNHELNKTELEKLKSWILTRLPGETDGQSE
UniProt Q06187, whole entry: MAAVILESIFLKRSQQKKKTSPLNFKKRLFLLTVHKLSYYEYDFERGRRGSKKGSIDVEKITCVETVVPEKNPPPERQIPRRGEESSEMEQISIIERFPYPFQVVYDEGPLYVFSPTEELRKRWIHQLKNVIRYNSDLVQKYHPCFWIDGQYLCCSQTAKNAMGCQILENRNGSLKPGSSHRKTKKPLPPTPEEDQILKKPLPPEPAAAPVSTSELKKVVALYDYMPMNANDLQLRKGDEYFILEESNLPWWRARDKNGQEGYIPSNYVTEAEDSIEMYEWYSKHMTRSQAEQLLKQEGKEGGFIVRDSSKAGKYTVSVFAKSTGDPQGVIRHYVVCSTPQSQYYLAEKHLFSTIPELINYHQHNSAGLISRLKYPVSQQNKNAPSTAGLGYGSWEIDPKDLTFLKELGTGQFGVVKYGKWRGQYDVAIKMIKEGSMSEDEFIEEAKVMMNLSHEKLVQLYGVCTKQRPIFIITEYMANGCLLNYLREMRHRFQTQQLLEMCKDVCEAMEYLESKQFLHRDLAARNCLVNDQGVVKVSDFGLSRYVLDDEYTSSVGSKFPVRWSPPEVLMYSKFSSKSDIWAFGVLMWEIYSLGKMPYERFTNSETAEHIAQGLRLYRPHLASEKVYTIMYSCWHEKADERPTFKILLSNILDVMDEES
UniProt P22756, 31-920 isoform 4 limits assumed: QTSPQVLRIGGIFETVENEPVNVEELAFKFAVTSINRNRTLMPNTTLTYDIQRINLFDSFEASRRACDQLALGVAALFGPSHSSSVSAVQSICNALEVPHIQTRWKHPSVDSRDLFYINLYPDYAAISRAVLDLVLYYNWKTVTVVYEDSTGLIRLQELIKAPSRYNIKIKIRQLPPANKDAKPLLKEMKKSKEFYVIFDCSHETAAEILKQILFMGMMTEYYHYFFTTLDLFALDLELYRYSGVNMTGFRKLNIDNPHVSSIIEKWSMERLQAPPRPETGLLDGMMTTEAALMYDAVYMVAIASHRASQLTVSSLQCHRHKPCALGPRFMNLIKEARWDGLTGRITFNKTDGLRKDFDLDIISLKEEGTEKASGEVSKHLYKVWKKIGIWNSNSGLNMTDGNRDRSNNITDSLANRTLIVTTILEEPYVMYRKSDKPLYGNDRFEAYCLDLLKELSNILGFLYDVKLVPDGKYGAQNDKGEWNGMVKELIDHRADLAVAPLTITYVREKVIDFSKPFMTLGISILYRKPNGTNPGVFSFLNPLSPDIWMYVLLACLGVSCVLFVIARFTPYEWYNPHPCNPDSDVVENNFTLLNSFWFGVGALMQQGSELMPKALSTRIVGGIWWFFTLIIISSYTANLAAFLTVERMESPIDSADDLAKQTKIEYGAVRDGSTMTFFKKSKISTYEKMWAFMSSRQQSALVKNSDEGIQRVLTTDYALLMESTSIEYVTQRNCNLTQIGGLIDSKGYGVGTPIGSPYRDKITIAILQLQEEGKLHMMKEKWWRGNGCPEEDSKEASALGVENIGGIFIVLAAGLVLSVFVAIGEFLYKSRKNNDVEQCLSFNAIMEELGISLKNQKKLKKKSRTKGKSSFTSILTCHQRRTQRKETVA
UniProt P05067, 672-713 limits assumed: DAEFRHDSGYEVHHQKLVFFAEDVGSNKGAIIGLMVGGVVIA
UniProt P11473, whole entry: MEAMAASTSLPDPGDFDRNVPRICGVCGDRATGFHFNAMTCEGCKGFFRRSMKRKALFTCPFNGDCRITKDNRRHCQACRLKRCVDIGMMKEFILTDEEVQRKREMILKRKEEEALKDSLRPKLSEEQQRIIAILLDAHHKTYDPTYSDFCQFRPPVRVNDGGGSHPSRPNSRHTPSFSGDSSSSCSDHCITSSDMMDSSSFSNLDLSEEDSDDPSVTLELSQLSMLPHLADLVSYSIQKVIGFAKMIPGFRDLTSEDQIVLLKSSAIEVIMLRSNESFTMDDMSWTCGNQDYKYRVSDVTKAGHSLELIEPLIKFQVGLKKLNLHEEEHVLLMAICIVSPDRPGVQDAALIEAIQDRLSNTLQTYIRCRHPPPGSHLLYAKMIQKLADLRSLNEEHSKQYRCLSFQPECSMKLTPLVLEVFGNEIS
UniProt P31424, 21-1203 limits assumed: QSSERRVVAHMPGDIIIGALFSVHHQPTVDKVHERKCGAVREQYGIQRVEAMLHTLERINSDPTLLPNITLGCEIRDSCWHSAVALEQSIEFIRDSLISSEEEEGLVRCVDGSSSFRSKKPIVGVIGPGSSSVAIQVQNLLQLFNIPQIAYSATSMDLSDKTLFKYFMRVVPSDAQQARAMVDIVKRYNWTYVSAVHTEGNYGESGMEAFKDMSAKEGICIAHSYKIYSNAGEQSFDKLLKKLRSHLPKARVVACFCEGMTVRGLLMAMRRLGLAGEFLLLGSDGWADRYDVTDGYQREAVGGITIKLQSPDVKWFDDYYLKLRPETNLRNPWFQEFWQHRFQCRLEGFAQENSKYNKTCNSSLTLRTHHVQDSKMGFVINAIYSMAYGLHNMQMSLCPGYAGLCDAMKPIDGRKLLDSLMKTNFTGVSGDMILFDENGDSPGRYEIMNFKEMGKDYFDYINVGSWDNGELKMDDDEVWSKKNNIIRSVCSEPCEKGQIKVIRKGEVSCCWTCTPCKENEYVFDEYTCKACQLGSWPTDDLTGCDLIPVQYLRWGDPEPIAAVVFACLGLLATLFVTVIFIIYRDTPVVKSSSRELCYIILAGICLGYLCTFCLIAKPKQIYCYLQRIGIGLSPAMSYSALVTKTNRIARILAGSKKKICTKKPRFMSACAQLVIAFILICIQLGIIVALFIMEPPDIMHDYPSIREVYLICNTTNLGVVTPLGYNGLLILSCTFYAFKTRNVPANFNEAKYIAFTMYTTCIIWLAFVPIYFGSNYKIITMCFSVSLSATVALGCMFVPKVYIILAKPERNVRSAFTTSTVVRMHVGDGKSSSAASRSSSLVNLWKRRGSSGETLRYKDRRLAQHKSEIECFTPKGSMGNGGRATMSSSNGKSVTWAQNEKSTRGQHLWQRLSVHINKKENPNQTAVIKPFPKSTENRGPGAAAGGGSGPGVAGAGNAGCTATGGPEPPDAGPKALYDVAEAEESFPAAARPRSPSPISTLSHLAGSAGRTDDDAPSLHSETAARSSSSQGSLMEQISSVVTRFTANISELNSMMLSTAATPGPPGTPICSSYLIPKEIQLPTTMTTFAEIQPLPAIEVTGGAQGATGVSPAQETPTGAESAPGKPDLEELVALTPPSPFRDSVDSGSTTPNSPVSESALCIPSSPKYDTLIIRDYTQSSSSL
UniProt Q07440, whole entry P104K/C113S, looked up: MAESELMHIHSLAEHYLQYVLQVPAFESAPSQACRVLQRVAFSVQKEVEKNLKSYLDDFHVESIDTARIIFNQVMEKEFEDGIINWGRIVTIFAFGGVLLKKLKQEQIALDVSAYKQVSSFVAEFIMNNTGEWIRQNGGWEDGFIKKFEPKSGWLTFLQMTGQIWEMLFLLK
UniProt P07900, 1-236 S52A limits assumed: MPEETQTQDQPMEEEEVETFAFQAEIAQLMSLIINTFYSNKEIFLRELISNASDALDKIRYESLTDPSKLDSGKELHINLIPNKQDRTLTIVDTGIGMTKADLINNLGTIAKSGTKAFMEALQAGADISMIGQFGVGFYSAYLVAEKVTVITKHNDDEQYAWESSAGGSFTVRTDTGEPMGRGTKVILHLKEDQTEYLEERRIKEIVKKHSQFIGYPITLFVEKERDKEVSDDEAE
UniProt P22455, 467-755 V550E limits assumed: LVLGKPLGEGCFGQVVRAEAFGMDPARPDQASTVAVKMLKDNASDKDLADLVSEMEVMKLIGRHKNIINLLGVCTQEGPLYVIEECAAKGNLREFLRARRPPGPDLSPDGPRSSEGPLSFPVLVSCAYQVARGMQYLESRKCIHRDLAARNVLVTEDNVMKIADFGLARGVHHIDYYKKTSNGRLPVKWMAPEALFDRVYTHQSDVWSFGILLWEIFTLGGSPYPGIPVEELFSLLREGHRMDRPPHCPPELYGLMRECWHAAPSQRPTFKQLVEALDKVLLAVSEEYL
UniProt Q5VWZ2, whole entry: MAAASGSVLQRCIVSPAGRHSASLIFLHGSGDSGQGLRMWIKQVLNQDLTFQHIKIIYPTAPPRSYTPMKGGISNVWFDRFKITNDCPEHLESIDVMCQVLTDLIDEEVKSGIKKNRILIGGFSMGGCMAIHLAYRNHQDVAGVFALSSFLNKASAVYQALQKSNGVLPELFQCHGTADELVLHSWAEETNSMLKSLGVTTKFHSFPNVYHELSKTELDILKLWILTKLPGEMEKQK

CC(=O)N[C@@H](CCC(N)=O)C(=O)N[C@H](C(=O)N[C@@H](C)C(=O)N[C@@H](CCCNC(=N)N)C(=O)N[C@@H](CCCCNC(=O)CCc1ccc(N=Nc2ccc(N(C)C)cc2)cc1)C(=O)N[C@@H](CO)C(=O)N[C@H](C(=O)NCC(=O)NCC(=O)NCCCNC(=S)Nc1ccc2c(c1)C(=O)OC21c2ccc(O)cc2Oc2cc(O)ccc21)[C@@H](C)O)[C@@H](C)O  kcat (SIRT2 (Homo sapiens, UniProt Q8IXJ6); substrate, fluorescence kinetics; 37 °C, 24 nM enzyme, with: 500 µM NAD+): 0.0024 ± 8e-05 s⁻¹
CCn1c(-c2cc(NC(=O)c3cnccn3)n[nH]2)cc2ccc(OC)cc21  maximal inhibition (CSNK2A1 (Homo sapiens, UniProt P68400); enzyme activity, inhibitor): 70%
CSCC[C@H](NC(=O)[C@H](CC(C)C)NC(=O)[C@H](CC(N)=O)NC(=O)c1ccccc1N)C(=O)N[C@@H](CCCCN)C(=O)N[C@@H](CCCCN)C(=O)N[C@@H](CO)C(=O)N[C@H](C(=O)N[C@@H](CCCCNc1ccc([N+](=O)[O-])cc1[N+](=O)[O-])C(N)=O)[C@@H](C)O  kcat/Km (Mitochondrial intermediate peptidase (MIPEP, Homo sapiens, UniProt Q99797); substrate, FRET peptide hydrolysis): 22000 M⁻¹ s⁻¹
CC(C)(C)c1ccnc(NC(=O)c2ccc(-c3nn([C@@H]4CCCN(C(=O)C5CC5)C4)c4ncnc(N)c34)cc2)c1  residence time (Tyrosine-protein kinase BTK, non-phosphorylated (BTK, Homo sapiens, UniProt Q06187); TR-FRET binding kinetics; 25 °C, unphosphorylated protein): 2.2 min
CC(C)(Cn1cc(CN[C@@H]2CCc3ccccc32)nn1)c1c[nH]c2ccccc12  Emax (GLP1R; cAMP accumulation, positive allosteric modulator, HTRF; 0.6 µM, crude reaction product, with: GLP-1(9-36) at EC20; relative to: BETP): 98.4%
Cc1ccc(C(=O)Nc2cc(F)ccc2C(=O)O)cc1S(=O)(=O)Nc1ccc(Br)cc1  ligand efficiency (RPA1 N-terminal domain; binding, fluorescence polarisation competition; with: FITC-ATRIP probe): 0.2
Cc1[nH]c2cc(Cl)cc(Cl)c2c1CCn1cc(CCN)nn1  Emax (GLP1R; cAMP accumulation, positive allosteric modulator, HTRF; 0.6 µM, purified compound, with: GLP-1(9-36) at EC20; relative to: BETP): 100 ± 9%
O=C(O)c1ccnc(C(=O)O)c1Nc1ccccc1[N+](=O)[O-]  remaining activity (KDM4E (Homo sapiens, UniProt B2RXH2); inhibitor, FDH-coupled spectrophotometry, item: formaldehyde; 200 µM): 6%
COc1ccc(NC(=O)CN2CCCN(S(=O)(=O)c3ccc(F)c(F)c3)CC2)c(OC)c1  maximal response (GRM4; calcium mobilization, positive allosteric modulator; CHO cells with Gqi5; with: glutamate; relative to: PHCCC maximal response): 27 ± 1.8%
O=C(O)c1cc(C(=O)N[C@@H](Cc2ccc(O)cc2)C(=O)O)cc([C@H]2CCN[C@@H]2C(=O)O)c1  specific binding (Glutamate receptor ionotropic, kainate 1 (Rattus norvegicus, UniProt P22756); radioligand binding; Sf9 membranes; 10 µM, homomeric receptor, with: [3H]SYM2081): 62 ± 1%
Cc1cc(NS(=O)(=O)c2cc(C(=O)Nc3ccccc3C(=O)O)ccc2C)ccc1Cl  ligand efficiency (RPA1 N-terminal domain; binding, fluorescence polarisation competition; with: FITC-ATRIP probe): 0.18
CCOC(=O)/C=C/CNCCCN1c2ccccc2CCc2ccccc21  ubiquitination TR-FRET signal AUC (E3 ubiquitin-protein ligase NEDD4; inhibitor, Ub-TR-FRET; 0.4115 µM, 1 h preincubation, HECT domain, with: ATP 2 mM; higher = more ubiquitination): 126000 a.u. and 128000 a.u.
Cc1cc(NC(=O)c2cccc(NC(=O)C3=CC(C)(C)CCC3=O)c2)ccc1Nc1nccc(-c2cccnc2)n1  remaining activity (MAPK8 (Homo sapiens, UniProt P45983); kinase activity, inhibitor; 44.44 µM, unit not given, with: 10 mM GSH; relative to: DMSO): 0.112
Fc1cccc(/C=C/c2c[nH]c3ccc(F)cc23)c1  inhibition (Amyloid-beta precursor protein, Aβ1-40 (APP, Homo sapiens, UniProt P05067); Aβ40 aggregation, thioflavin T fluorescence; 25 µM): 49%
O[C@@H]1[C@H](O)[C@@H]2C[C@@H]2[C@H]1n1cnc2c(NCc3cccc([125I])c3)nc(Cl)nc21  association half-life (ADORA3 (Homo sapiens, UniProt P0DMS8); binding; HEK293 cell membranes; room temperature): 33.6 ± 4.8 s
Cc1cc(SCc2sc(-c3cccc4[nH]ccc34)nc2C)ccc1OCC(=O)O  IC50 (Vitamin D3 receptor (VDR, Homo sapiens, UniProt P11473); reporter gene, antagonist; HEK-293T; up to 100 µM, CYP24A1 promoter luciferase, with: 1,25(OH)2D3 10 nM): inactive
COCCN1C(=O)C(O)=C(C(=O)c2ccc(C)cc2)C1c1ccc(OC)cc1OC (centres unmarked)  antagonist activity (FPR1 (Homo sapiens, UniProt P21462); fMLF-induced calcium mobilization, antagonist; HL-60 expressing FPR1; concentration not given, inactive if none at 50 µM): active
Cc1ncc(COc2ccc3c(c2)c(=O)c(C(N)=O)cn3-c2ccc(F)cc2)cn1  response (Grm2; calcium mobilization, negative allosteric modulator; 30 µM, with: glutamate 100 µM; relative to: glutamate maximum): 1.3 ± 0.58%
N#Cc1cnc(Nc2nc3ccccc3o2)nc1-c1cccc2ccccc12  maximal response (Grm5 (Rattus norvegicus, UniProt P31424); calcium mobilization, negative allosteric modulator; with: glutamate EC80; relative to: glutamate maximum): 40 ± 12%
CC(=O)Nc1ncc(CN2CC[C@H](Oc3cccc(F)n3)C[C@@H]2C)s1 [isotope labelled]  specific binding (Protein O-GlcNAcase (Macaca mulatta, UniProt F6QIP2); autoradiography; monkey solitary tract nucleus; 5 nM, radiolabelled compound): 8.3 nCi/mg
CCOC(=O)/C=C/CNCCCCN1c2ccccc2CCc2ccc(Cl)cc21  ubiquitination TR-FRET signal AUC (E3 ubiquitin-protein ligase NEDD4; inhibitor, Ub-TR-FRET; 0.04572 µM, 1 h preincubation, HECT domain, with: ATP 2 mM; higher = more ubiquitination): 92500 a.u. and 88500 a.u. and 140000 a.u. and 78100 a.u. and 79800 a.u. and 83200 a.u.
COC(=O)[C@@]1(C)C=C(C(=O)Nc2cccc(C(=O)NC34CC(Nc5nccc(-c6cccnc6)n5)(C3)C4)c2)C(=O)CC1  remaining activity (MAPK9 (Homo sapiens, UniProt P45984); enzyme activity, inhibitor; 8.363e-05 µM): 1.01 fraction of control
CCCCCCCC(=O)OCC(COP(=O)(O)OC1C(O)C(O)C(OP(=O)(O)O)C(OP(=O)(O)O)C1O)OC(=O)CCCCCCC (centres unmarked)  Hill coefficient (CNGA3/CNGB3 (Homo sapiens, UniProt Q16281+Q9NQW8); increase in cGMP K1/2, modulator, inside-out patch clamp; CNGA3/CNGB3 heteromer): 1.5
Cc1ccc(NC(=O)c2cc3ccccc3c(N=Nc3cc(S(=O)(=O)O)ccc3O)c2O)c(C)c1  Noxa peptide bound (Bcl-2-related protein A1 (Mus musculus, UniProt Q07440, C113S/P104K); binding, inhibitor, fluorescence polarization competition; 100 µM, overnight, 20 °C, with: FITC-Noxa peptide 375 nM; relative to: peptide without protein): 1.2%
Cc1ncsc1-c1ccc([C@H](C)NC(=O)[C@@H]2C[C@@H](O)CN2C(=O)[C@@H](NC(=O)CCCCCCC(=O)N2CCN(C[C@]3(C)CCC(c4ccc(Cl)cc4)=C(CN4CCN(c5ccc(C(=O)NS(=O)(=O)c6ccc(N[C@H](CCN7CCOCC7)CSc7ccccc7)c(S(=O)(=O)C(F)(F)F)c6)cc5)CC4)C3)CC2)C(C)(C)C)cc1  protein level (BCL2L2 (Homo sapiens, UniProt Q92843); western blot; WI-38 senescent and non-senescent; up to 100 nM): no effect
O=C(Nc1ccccc1C(=O)O)c1cccc(S(=O)(=O)Nc2ccc(Cl)c(Cl)c2)c1  ligand efficiency (RPA1 N-terminal domain; binding, fluorescence polarisation competition; with: FITC-ATRIP probe): 0.22
O=C(CF)c1ccc2c(Nc3ccccc3)ncnc2c1  IC50 fold decrease (EPHB3 (Homo sapiens, UniProt P54753); kinase activity, inhibitor; 1 h preincubation; relative to: without preincubation): 5 fold
CC(=O)NCCCC[C@H](NC(=O)CNC(=O)[C@H](CC(C)C)NC(C)=O)C(=O)Nc1ccc2c(C)cc(=O)oc2c1  kcat/Km (Histone deacetylase 3/Nuclear receptor corepressor 2 (HDAC3/NCoR2) (Homo sapiens, UniProt O15379+Q9Y618); substrate; pH 7.4, 25 °C): > 100000 M⁻¹ s⁻¹
O=C(/C=C/c1ccc(O)c(OC(F)(F)F)c1)C(CCOCCO)C(=O)/C=C/c1ccc(O)c(OC(F)(F)F)c1  Aβ band density (APP (Homo sapiens, UniProt P05067); SDS-PAGE western blot, item: Aβ1-42 species 75-200 kDa; 30 µM, 24 h, 37 °C, with: Aβ 10 µM; relative to: DMSO control): 614 ± 174%
CCOC(=O)/C=C/CNCCCN1c2ccccc2CCc2ccc([N+](=O)[O-])cc21  ubiquitination TR-FRET signal AUC (E3 ubiquitin-protein ligase NEDD4; inhibitor, Ub-TR-FRET; 0.01524 µM, 1 h preincubation, HECT domain, with: ATP 2 mM; higher = more ubiquitination): 147000 a.u. and 149000 a.u.
Nc1nc(NCCc2ccc(Cl)cc2)nn1S(=O)(=O)C1CCCCC1  probe labelling (Lysophospholipase-like protein 1; activator, gel-based ABPP FP-rhodamine; relative to: DMSO): 1 fold
CCOC(=O)/C=C/CNCCCN1c2ccccc2CCc2ccc(Br)cc21  ubiquitination TR-FRET signal AUC (E3 ubiquitin-protein ligase NEDD4; inhibitor, Ub-TR-FRET; 11.11 µM, 1 h preincubation, HECT domain, with: ATP 2 mM; higher = more ubiquitination): 61400 a.u. and 47400 a.u. and 48800 a.u.
C/C=C/Cn1c(Cc2cc(OC)c(OC)c(OC)c2)nc2c(N)ncnc21  ΔG (Heat shock protein HSP 90-alpha, N-terminal domain (HSP90AA1, Homo sapiens, UniProt P07900, S52A); isothermal titration calorimetry; 298 K, N-terminal domain S52A): -30.8 ± 1.59 kJ/mol
O=C(OC(C(F)(F)F)C(F)(F)F)N1CCc2c(cccc2-c2ccccc2)C1  activity (FAAH (Homo sapiens, UniProt O00519); enzyme activity, inhibitor, fluorescence AAMCA substrate; 1 µM): inactive
O=C(NC1CCCCC1)C12CC1/C(=N\O)c1ccccc1O2 (centres unmarked)  response (GRM4; positive allosteric modulator, calcium mobilization; CHO expressing Gqi5; concentration not given, with: glutamate EC20; relative to: (±)-PHCCC): 73.7 ± 1%
CC(=O)N1CCN(c2ccc(Nc3ncc4c(n3)N(C)C(=O)N(c3cc(NC(=O)c5ccc(CN6CCC(N(C)C)C6)c(C(F)(F)F)c5)ccc3C)C4)cn2)CC1 (centres unmarked)  potency ratio (FGFR4/Transcription factor ETV6 (Homo sapiens, UniProt P22455+P41212, V550E); cell proliferation, inhibitor; Ba/F3 TEL-FGFR4 V550E; relative to: compound over BLU9931, higher = more potent): 80 fold
NC(=O)c1cn(-c2ccc(F)cc2)c2ccc(CN3CCCCC3)cc2c1=O  response (Grm2; calcium mobilization, negative allosteric modulator; 30 µM, with: glutamate 100 µM; relative to: glutamate maximum): 37.2 ± 9.7%
COc1ccc(S(=O)(=O)n2nc(SCc3ccc(Cl)cc3)nc2N)cn1  FP-rhodamine labelling (LYPLAL1 (Homo sapiens, UniProt Q5VWZ2); activator, gel-based ABPP; purified protein; relative to: DMSO): 1.9 fold
CN(C)C(=O)Cn1cc(-c2ccc(-c3cncc4ccncc34)cc2)cn1  inhibition (CDK9 (Homo sapiens, UniProt P50750); enzyme activity, SelectScreen; concentration not given): no inhibition
Nc1nc(SCc2ccc(Cl)cc2)nn1S(=O)(=O)c1cccc([N+](=O)[O-])c1  probe labelling (Lysophospholipase-like protein 1; activator, gel-based ABPP FP-rhodamine; relative to: DMSO): 2.7 fold
O=C1CCC(N2Cc3cc(-c4nc5ccccn5c4Cl)ccc3C2=O)C(=O)N1 (centres unmarked)  Dmax (WEE1/CRBN (Homo sapiens, UniProt P30291+Q96SW2); degrader, HiBiT; Jurkat; 5 h): 87%
C[C@H](NC(=O)[C@@H](Cc1c[nH]c2ccccc12)NC(=O)[C@@H](N)Cc1c[nH]cn1)C(=O)NN(Cc1ccc(O)cc1)C(=O)N[C@H](Cc1ccccc1)C(=O)N[C@@H](CCCCN)C(N)=O  SPR response (CD36 (Homo sapiens, UniProt P16671); binding; whole human blood; 7.5 µM, 90 min): 0.46 ± 0.08 nm
COc1ccc(NC(=O)CN2CCCN(S(=O)(=O)c3ccccc3F)CC2)c(OC)c1  maximal response (GRM4; calcium mobilization, positive allosteric modulator; CHO cells with Gqi5; with: glutamate; relative to: PHCCC maximal response): 36.6%
Cc1ccccc1Nc1c(C(=O)O)ccnc1C(=O)O  remaining activity (fdhA (Pseudomonas putida, UniProt P46154); inhibitor, spectrophotometric; 200 µM, counterscreen): 79%

Some of these lines once more:
CCOC(=O)/C=C/CNCCCCN1c2ccccc2CCc2ccc(Cl)cc21  ubiquitination TR-FRET signal AUC (E3 ubiquitin-protein ligase NEDD4; inhibitor, Ub-TR-FRET; 0.04572 µM, 1 h preincubation, HECT domain, with: ATP 2 mM; higher = more ubiquitination): 92500 a.u. and 88500 a.u. and 140000 a.u. and 78100 a.u. and 79800 a.u. and 83200 a.u.
CCOC(=O)/C=C/CNCCCN1c2ccccc2CCc2ccc([N+](=O)[O-])cc21  ubiquitination TR-FRET signal AUC (E3 ubiquitin-protein ligase NEDD4; inhibitor, Ub-TR-FRET; 0.01524 µM, 1 h preincubation, HECT domain, with: ATP 2 mM; higher = more ubiquitination): 147000 a.u. and 149000 a.u.
O=C(OC(C(F)(F)F)C(F)(F)F)N1CCc2c(cccc2-c2ccccc2)C1  activity (FAAH (Homo sapiens, UniProt O00519); enzyme activity, inhibitor, fluorescence AAMCA substrate; 1 µM): inactive
O=C(O)c1ccnc(C(=O)O)c1Nc1ccccc1[N+](=O)[O-]  remaining activity (KDM4E (Homo sapiens, UniProt B2RXH2); inhibitor, FDH-coupled spectrophotometry, item: formaldehyde; 200 µM): 6%
